Results gathered from unrelated publications.
Each numbered part is a random draw from the data of one study; scales do not carry over between parts.

Block 1 — technique: protein-binding microarray; form: double-stranded DNA, one strand shown; matrix: in vitro; concentration: 940 nM top; setting: 60-bp whole probe; together with: salmon DNA 0.4 mg/ml; baseline: random background probes; direction: higher = stronger binding
Target: Interferon regulatory factor 5, full length, phosphomimetic (IRF5, Homo sapiens, UniProt Q13568-2, residues 1-514, S451D/S453D/S456D/S462D)
Oligonucleotide	fitted relative affinity
GCCTAGCACTCAGATCTGCCGTCCCACTCAGTGCTAGTCTTGATTCGCTTGACGCTGCTG	0.172 z-score
GCCTAGCACTCACTCTTTGGCAAAGCCAGGTGCTAGGTCTTGATTCGCTTGACGCTGCTG	0.0447 z-score
GCCTAGCACTTCGGACTGGACTTTCGGTTAGTGCTAGTCTTGATTCGCTTGACGCTGCTG	2.52 z-score
GCCTAGCACTTAGATGTCAGTTCCGATTAGTGCTAGGTCTTGATTCGCTTGACGCTGCTG	0.932 z-score

Block 2 — technique: RNA Bind-n-Seq; form: RNA; matrix: in vitro; concentration: 365 nM; baseline: no-protein control; direction: higher = stronger binding
Target: RNA binding protein fox-1 homolog 2, RRM domain, GST-SBP tag (RBFOX2, Homo sapiens, UniProt O43251-10, residues 100-194)
Setting: natural RNA segment, single round, ends assumed
Shared flanks, not repeated: GGGAGUUCUACAGUCCGACGAUC … UGGAAUUCUCGGGUGCCAA
Construct (chain): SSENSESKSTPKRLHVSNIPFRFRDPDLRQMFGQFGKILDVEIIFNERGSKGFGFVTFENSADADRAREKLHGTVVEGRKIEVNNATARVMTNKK
Oligonucleotide	RBNS enrichment (R)
UGACGUGUCCAUUCUGAUAUAUGCAGUCAUUUUGAAUUUGGUCUGUGCCUUCUCUGGAUCCCUCCCUAGCCUGUGCCCCGAGCCGUCCAUAGAGAGUUUGUAGGUAUUUC	1.11
GAAGCUCUCCAUACUGAAGUACCAGAUGCAGCCCAAGUGAAUUUCCUGUAAUGCUGCUGCCCCUCCUUCCUGGGCAGCUCUACUGGGGAGAUGAGAAGCUCUUGAUCCAA	0.294
UGUGCAUGCGCAUGUUUAACCACAGGCCAGAGAACUCAAUUCUGAUGUCGUAAGUUCUCUGUAAGUGAAAUGGGGUAGACUGUAUGAUUUUCCUAUUGCCAAAAGAAAGA	41.8
CUCAGUUUGCUGUAAGAUUGUAUUCUGUAGAUAUGUUUCCAUGUACAUAAAGGAAAAUAUAUAUCAGAGUUAUAUUUUAAUUUUUAUUCUAAAUGGAAAAAAAACCCUUU	0.54
UGAGUUUUUAUUCUUCCUUCCUUCCAUACAACAAAACAAGUCCAUAGCCUAUGACCCAAGACUGUUUGUGGCCUUAGGAACAAUUGCUUAAGCAGGUCAAGCAUUUUGAA	0.523
CCUAGUCAUGGCAAAGAAGAUGUGACACGAGGGACCAGUCCCAGAGCAGCUACAGAAAGGGUGUGAGGCCCCAAAACCGUGUGCUGAGGGGCGAAUGCGUCGCCACCCCU	1.05
UGGGUACAGGAGAAGUUUGGUGUUUGGUAGGUUUUUCAACAUUAGUUUUUGAGACUAGUUUACCUCUUCACAUUUAUGCUCACAACCCUCUUGUUAGAAAAGUCUGUGUU	0.393

Block 3 — technique: protein binding microarray; form: double-stranded DNA, one strand shown; matrix: in vitro; concentration: not given; baseline: not given; direction: higher = stronger binding
Target: Histone acetyltransferase KAT6A, winged helix 1, GST fusion (KAT6A, Homo sapiens, UniProt Q92794, residues 1-85)
Setting: 8-mer, flanks averaged, mean of 2 arrays, mostly near background
Residues (chain): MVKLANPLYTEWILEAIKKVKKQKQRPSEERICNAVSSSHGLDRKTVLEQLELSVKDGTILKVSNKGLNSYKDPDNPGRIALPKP
Oligonucleotide	E-score
GGCACAAC	-0.038
CAGTACAC	-0.07
GTATTGAC	0.0624
CCTTACGC	0.136
ATTCCACG	0.0658
GGGAACTA	0.0741
GAACTCGA	-0.153

Further values, each from its own experiment
Substance	target	assay	system	setting	how to read	endpoint	result
PhoQ, residues 284 288 289 292 302 303 ALASRC	PhoP, residues 12 14 15 18 19 LHSVW (Escherichia coli, UniProt P23836)	Sort-seq, item: YFP reporter	E. coli	PhoQ-PhoP variant library, together with: 10 µM Mg2+	baseline: high Mg2+ state, higher = stronger signaling	fold induction	3.05
